Assay results pooled from the literature.
Every numbered part comes from another study and shows a few of its results, in no order. Values joined by “and” are separate records of one study, mostly repeats; a detail may differ.
UniProt O95835, sequence (whole entry, looked up): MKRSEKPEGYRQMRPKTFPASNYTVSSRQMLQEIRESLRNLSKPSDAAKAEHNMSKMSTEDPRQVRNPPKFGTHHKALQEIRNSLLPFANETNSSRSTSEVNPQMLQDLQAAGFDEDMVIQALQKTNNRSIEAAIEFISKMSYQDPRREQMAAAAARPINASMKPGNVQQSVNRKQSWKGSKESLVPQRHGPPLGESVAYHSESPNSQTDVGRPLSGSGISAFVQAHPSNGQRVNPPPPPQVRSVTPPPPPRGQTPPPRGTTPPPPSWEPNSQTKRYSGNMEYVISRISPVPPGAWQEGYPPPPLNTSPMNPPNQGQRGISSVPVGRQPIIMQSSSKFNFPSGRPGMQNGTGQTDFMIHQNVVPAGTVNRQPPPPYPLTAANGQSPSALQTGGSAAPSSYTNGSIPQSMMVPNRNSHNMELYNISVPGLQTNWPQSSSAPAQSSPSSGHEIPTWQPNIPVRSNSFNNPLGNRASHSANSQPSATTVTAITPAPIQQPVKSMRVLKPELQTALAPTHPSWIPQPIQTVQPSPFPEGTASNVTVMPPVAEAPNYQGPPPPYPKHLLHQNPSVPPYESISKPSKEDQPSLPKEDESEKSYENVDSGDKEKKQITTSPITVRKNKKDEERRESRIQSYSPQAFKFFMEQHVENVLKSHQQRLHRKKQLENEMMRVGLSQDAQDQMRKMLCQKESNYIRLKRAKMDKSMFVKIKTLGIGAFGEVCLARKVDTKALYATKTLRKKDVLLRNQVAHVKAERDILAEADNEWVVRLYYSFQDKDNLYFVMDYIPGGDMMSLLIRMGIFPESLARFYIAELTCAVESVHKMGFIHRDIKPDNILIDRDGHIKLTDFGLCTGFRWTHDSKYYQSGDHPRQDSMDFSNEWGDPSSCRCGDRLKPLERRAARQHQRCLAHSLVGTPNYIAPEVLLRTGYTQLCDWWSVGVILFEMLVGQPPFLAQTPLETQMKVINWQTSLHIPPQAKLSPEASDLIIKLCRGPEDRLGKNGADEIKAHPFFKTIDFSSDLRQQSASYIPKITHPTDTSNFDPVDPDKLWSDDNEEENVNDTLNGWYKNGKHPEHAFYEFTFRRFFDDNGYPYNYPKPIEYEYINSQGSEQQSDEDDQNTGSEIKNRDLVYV
UniProt Q15759, sequence (whole entry, looked up): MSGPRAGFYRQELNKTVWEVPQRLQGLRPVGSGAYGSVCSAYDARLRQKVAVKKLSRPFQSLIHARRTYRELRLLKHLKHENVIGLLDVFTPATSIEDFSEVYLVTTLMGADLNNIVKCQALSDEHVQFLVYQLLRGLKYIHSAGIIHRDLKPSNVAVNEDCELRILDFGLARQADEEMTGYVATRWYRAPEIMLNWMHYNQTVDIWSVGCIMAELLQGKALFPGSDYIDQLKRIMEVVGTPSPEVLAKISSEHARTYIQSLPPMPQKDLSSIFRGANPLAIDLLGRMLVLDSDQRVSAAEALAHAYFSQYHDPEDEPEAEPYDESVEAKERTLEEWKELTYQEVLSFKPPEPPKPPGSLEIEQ
UniProt Q13546, sequence (whole entry, looked up): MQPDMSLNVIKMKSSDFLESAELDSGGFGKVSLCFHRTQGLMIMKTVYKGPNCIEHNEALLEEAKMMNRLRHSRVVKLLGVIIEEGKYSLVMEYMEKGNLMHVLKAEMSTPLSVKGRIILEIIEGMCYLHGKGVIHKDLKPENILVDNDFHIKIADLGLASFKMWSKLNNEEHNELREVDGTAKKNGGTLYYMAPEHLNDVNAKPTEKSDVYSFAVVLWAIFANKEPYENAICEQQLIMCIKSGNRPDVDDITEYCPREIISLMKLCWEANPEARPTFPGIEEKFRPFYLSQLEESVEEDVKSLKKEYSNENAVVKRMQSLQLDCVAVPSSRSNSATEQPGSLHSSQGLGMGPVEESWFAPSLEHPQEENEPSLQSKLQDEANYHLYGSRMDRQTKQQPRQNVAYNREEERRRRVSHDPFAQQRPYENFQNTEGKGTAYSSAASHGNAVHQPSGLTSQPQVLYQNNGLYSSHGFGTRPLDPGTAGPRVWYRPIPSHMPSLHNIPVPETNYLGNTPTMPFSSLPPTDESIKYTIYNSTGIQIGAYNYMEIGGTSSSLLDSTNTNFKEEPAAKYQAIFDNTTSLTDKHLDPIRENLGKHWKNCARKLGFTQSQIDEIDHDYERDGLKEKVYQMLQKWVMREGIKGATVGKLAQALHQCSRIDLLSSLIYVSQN
UniProt P21709, sequence (whole entry, looked up): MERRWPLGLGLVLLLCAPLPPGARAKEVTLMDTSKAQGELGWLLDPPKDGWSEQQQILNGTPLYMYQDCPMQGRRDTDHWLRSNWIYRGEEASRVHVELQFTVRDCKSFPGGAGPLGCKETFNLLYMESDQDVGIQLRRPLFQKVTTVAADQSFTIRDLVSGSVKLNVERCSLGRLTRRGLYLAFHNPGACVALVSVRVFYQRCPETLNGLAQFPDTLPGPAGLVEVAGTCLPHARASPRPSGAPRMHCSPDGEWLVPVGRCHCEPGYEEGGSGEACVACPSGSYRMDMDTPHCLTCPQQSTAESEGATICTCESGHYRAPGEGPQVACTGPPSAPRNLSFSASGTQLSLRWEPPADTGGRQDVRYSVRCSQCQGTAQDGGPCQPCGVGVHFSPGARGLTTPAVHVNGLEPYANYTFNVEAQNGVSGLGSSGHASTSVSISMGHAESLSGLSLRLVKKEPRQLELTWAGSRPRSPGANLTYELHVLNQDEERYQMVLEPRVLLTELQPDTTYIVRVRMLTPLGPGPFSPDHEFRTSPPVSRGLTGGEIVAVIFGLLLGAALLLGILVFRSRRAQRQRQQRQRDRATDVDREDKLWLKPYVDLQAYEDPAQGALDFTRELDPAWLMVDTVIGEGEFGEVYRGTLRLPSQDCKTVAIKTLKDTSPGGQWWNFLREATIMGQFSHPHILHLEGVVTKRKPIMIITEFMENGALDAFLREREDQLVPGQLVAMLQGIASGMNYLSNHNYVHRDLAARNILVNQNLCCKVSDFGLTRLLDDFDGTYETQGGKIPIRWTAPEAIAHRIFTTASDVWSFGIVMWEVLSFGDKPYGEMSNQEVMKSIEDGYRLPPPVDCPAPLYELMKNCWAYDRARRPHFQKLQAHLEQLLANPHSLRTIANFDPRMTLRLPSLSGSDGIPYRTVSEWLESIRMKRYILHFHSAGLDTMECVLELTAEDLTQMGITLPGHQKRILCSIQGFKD
UniProt Q14012, sequence (whole entry, looked up): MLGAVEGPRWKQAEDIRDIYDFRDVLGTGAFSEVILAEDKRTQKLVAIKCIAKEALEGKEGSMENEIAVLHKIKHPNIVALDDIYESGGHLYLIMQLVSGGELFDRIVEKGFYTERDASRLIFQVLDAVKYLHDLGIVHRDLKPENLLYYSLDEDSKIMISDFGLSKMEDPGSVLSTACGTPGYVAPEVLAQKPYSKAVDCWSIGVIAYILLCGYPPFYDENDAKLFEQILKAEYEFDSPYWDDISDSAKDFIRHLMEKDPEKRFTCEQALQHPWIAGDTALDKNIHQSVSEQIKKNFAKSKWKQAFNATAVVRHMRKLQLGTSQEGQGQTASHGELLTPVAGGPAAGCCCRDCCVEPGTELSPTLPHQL

Block 1
SMILES: COc1cc(-c2nc3ccc(C(=O)NCCCN(C)C)cc3n2C2CCC2)cc(OC)c1OC
Technique: NanoBRET
Tested at: 1 µM
Endpoint: target occupancy
target = Ephrin type-A receptor 1 (EPHA1, Homo sapiens, UniProt P21709); result = -0.5%
target = Receptor-interacting serine/threonine-protein kinase 1 (RIPK1, Homo sapiens, UniProt Q13546); result = -3.47%
target = Ribosomal protein S6 kinase alpha-6 (RPS6KA6, Homo sapiens, UniProt Q9UK32); result = 2.37%
target = Serine/threonine-protein kinase/endoribonuclease IRE1 (ERN1, Homo sapiens, UniProt O75460); result = -3.49%
target = Fibroblast growth factor receptor 2 (FGFR2, Homo sapiens, UniProt P21802); result = -0.52%
target = Mitogen-activated protein kinase 11 (MAPK11, Homo sapiens, UniProt Q15759); result = -0.47%
target = Serine/threonine-protein kinase Nek3 (NEK3, Homo sapiens, UniProt P51956); result = -1.34%
target = Angiopoietin-1 receptor (TEK, Homo sapiens, UniProt Q02763); result = 5.73%
target = Mitogen-activated protein kinase kinase kinase kinase 2 (MAP4K2, Homo sapiens, UniProt Q12851); result = 2.17%
target = Calcium/calmodulin-dependent protein kinase type 1 (CAMK1, Homo sapiens, UniProt Q14012); result = -1.9%
target = Mitogen-activated protein kinase kinase kinase 19 (MAP3K19, Homo sapiens, UniProt Q56UN5); result = 0.83%
target = Ephrin type-B receptor 1 (EPHB1, Homo sapiens, UniProt P54762); result = 0.48%
target = Tyrosine-protein kinase Tec (TEC, Homo sapiens, UniProt P42680); result = -2.73%
target = Serine/threonine-protein kinase LATS1 (LATS1, Homo sapiens, UniProt O95835); result = -9.73%
target = Homeodomain-interacting protein kinase 3 (HIPK3, Homo sapiens, UniProt Q9H422); result = -2.17%
target = Membrane-associated tyrosine- and threonine-specific cdc2-inhibitory kinase (PKMYT1, Homo sapiens, UniProt Q99640); result = 5.3%
target = Homeodomain-interacting protein kinase 2 (HIPK2, Homo sapiens, UniProt Q9H2X6); result = 1.56%

Block 2
SMILES: C[C@@H]1CN(c2ccc(-c3cc(C(=O)NCCOCCOCCOCCOCCOCCOCCNC(=O)/C=C/c4[nH]cc(C(=O)N[C@@H](CC(N)=O)c5ccc(F)c(Cl)c5)c4-c4ccc(Cl)cc4F)ccc3F)cc2NC(=O)c2ccc(F)cc2C(F)(F)F)C[C@H](C)N1C
Effect on: thermal unfolding
Technique: differential scanning fluorimetry
Tested at: 5.5 µM
Reading: higher = more unfolded
Endpoint: SYPRO Orange fluorescence
WDR5: WD repeat-containing protein 5 (WDR5, Homo sapiens, UniProt P61964)
DCAF1: DDB1- and CUL4-associated factor 1 (DCAF1, Homo sapiens, UniProt Q9Y4B6)
UniProt Q9Y4B6, sequence (whole entry, looked up): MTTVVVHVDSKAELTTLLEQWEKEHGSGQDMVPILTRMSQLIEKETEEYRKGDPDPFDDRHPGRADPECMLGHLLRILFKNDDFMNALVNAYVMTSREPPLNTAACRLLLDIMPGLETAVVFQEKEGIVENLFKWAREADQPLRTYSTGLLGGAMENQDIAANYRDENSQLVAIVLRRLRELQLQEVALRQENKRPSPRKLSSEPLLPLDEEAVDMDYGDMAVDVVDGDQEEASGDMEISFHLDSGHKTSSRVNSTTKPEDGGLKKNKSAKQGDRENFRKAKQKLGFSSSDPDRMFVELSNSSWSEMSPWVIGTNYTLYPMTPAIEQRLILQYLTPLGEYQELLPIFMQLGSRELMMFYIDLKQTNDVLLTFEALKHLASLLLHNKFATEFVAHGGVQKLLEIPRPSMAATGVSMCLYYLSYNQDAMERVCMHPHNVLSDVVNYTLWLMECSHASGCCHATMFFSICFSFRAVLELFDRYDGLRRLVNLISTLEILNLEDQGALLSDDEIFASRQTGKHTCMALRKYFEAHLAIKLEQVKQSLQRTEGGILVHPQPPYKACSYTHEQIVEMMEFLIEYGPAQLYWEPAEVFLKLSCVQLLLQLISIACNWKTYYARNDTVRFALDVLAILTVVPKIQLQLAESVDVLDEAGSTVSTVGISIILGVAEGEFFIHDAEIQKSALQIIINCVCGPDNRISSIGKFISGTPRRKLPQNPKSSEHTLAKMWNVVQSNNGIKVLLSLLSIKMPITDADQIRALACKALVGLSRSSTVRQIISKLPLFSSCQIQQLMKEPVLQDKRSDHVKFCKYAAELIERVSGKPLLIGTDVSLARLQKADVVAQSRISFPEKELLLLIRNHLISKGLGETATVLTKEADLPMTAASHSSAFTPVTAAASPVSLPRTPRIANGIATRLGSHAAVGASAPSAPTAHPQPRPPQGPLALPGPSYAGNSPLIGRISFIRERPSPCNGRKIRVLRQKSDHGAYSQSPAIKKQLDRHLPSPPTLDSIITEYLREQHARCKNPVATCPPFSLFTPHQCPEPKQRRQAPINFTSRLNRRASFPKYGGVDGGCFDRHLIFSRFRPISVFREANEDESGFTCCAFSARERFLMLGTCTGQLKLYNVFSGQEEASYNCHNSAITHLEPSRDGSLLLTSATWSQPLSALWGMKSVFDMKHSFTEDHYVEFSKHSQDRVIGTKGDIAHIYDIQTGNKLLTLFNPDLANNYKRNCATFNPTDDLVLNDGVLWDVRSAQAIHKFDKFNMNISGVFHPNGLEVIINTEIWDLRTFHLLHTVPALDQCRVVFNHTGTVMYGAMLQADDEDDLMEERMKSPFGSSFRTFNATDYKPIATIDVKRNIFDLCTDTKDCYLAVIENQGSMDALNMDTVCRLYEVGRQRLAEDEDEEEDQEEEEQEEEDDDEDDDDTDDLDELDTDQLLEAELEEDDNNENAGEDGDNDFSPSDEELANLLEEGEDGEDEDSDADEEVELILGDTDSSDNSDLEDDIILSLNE
target = WDR5; temperature = 81.61 °C; result = 65700 a.u.
target = DCAF1; temperature = 76.41 °C; result = 42600 a.u.
target = DCAF1; temperature = 71.61 °C; result = 46600 a.u.
target = DCAF1; temperature = 82.61 °C; result = 38000 a.u.
target = DCAF1; temperature = 70.01 °C; result = 48300 a.u.
target = WDR5; temperature = 35.8 °C; result = 14000 a.u.
target = DCAF1; temperature = 80.81 °C; result = 39400 a.u.
target = WDR5; temperature = 39 °C; result = 13900 a.u.
target = WDR5; temperature = 43.2 °C; result = 14600 a.u.
target = WDR5; temperature = 94.41 °C; result = 48900 a.u.
target = WDR5; temperature = 83.01 °C; result = 64800 a.u.

Block 3
SMILES: C#Cc1cccc2cc(O)cc(-c3ncc4c(N5CC6CCC(C5)N6)nc(OCC56CCCN5CCC6)nc4c3F)c12
Target: GTPase KRas (KRAS, Homo sapiens, UniProt P01116, G12D)
Effect on: binding
Technique: NanoBRET
Cells: HEK293 (live)
Reading: lower = stronger binding
Endpoint: target engagement
tested at = 1 µM; result = 2e-15% and -0.243% and -1.25%
tested at = 0.04576 µM; result = 11.3% and 12.2% and 12.4%
tested at = 0.5229 µM; result = 3.29% and 3.87% and 4.93%

Block 4
SMILES: Cc1ccnc(C)c1-c1cnc2[nH]c(-c3ccc(N4CCN(C)CC4)nc3C)nc2c1
Target: Membrane-associated tyrosine- and threonine-specific cdc2-inhibitory kinase (PKMYT1, Homo sapiens, UniProt Q99640)
Effect on: binding
Technique: HTRF
Endpoint: inhibition
Residues (Q99640 1-499): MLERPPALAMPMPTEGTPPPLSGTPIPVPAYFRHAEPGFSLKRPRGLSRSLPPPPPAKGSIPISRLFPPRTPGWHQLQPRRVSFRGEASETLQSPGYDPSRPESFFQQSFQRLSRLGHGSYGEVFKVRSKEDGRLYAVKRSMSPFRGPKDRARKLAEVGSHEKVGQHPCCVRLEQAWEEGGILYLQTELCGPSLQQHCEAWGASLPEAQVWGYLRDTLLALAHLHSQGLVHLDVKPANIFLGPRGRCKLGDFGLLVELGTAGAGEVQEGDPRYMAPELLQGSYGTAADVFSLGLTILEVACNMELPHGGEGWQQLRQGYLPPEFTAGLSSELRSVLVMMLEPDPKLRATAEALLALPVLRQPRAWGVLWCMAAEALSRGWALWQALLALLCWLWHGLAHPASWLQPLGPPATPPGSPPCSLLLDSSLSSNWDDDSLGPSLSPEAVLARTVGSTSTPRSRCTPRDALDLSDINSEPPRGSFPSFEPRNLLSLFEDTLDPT
tested at = 0.51 nM; result = -9.32% and -11.9%
tested at = 10000 nM; result = 8.06% and 14.8%
tested at = 1.52 nM; result = -15.1% and -17.2%
tested at = 41.15 nM; result = -20.2% and -16.2%
tested at = 370.37 nM; result = -13.3% and -17.9%
tested at = 0.0169 nM; result = 3.92% and -4.87%
tested at = 13.72 nM; result = -13.5% and -18.4%
tested at = 4.57 nM; result = -15.1% and -7.83%

Repeated from above (block 4):
tested at = 0.51 nM; result = -9.32% and -11.9%
tested at = 10000 nM; result = 8.06% and 14.8%
tested at = 1.52 nM; result = -15.1% and -17.2%
tested at = 41.15 nM; result = -20.2% and -16.2%
tested at = 370.37 nM; result = -13.3% and -17.9%
tested at = 0.0169 nM; result = 3.92% and -4.87%
